Measurements gathered from unrelated publications.
Compare with care: the assays were run in different laboratories.

SMILES | host | sample | route | dose | setting | AUC(0-inf)
CCOc1cc([C@@H](CS(C)(=O)=O)N2C(=O)c3cccc(NC(C)=O)c3C2=O)ccc1OC | human | plasma | oral | 30 mg | single dose, healthy volunteers | 3270 ng·h/mL
O=C(/C=C/c1cccc(S(=O)(=O)Nc2ccccc2)c1)NO | human | plasma | intravenous | 1000 mg/m² | patients | 81.7 µM·h
CCCc1nn(C)c2c(=O)[nH]c(-c3cc(S(=O)(=O)N4CCN(C)CC4)ccc3OCC)nc12 | male human | plasma | oral | 50 mg | single dose | 601 ng·h/mL
CS(=O)(=O)n1cc2c(n1)CN([C@H]1CO[C@H](c3cc(F)ccc3F)[C@@H](N)C1)C2 | male human | plasma | oral | 10 mg | single dose, fasted | 9.78 µM·h
CC#CC(=O)N1CCC[C@H]1c1nc(-c2ccc(C(=O)Nc3ccccn3)cc2)c2c(N)nccn12 | human | plasma | oral | 100 mg | single dose, fasted | 1110 ng·h/mL
C[C@@H]1CCC[C@H](n2cnc(-c3cc(Cl)ccc3-n3cc(Cl)nn3)cc2=O)c2cc(ccn2)-c2c(cnn2C(F)F)NC1=O | human | plasma | oral | 200 mg | single dose, fed, healthy volunteers | 19100 ng·h/mL
COc1cccc(-c2ccc(NC(=O)C3=C(C(=O)O)CCC3)c(F)c2)c1 | male human | plasma | oral | 20 mg | single dose, fasted, healthy volunteers | 79000 ng·h/mL
O=C(CCCCCCC(=O)Nc1ccccc1)NO | human | plasma | oral | 400 mg | single dose | 1050 ng·h/mL
CNC(=O)c1ccccc1Sc1ccc2c(/C=C/c3ccccn3)n[nH]c2c1 | human | plasma | oral | 5 mg | single dose, fed | 142 ng·h/mL
CC[C@@]1(O)C(=O)OCc2c1cc1n(c2=O)Cc2cc3c(CN(C)C)c(O)ccc3nc2-1 | human | plasma | oral | 4 mg | patients | 61 ng·h/mL
O=C(c1nc2n(n1)[C@H](c1ccccc1)C[C@@H]2F)C1CC1 | human | plasma | oral | 75 mg | single dose, fasted, healthy volunteers | 13200 ng·h/mL
CC(C)(Sc1ccncc1-c1ccc(C#N)c2ccccc12)C(=O)O | male human | plasma | oral | 5 mg | single dose, fasted | 42.3 ng·h/mL
C[C@H]1CO[C@@H]2Cn3cc(C(=O)NCc4ccc(F)cc4F)c(=O)c(O)c3C(=O)N12 | human | plasma | oral | 30 mg | single dose, fasted, healthy volunteers | 148000 ng·h/mL
CCc1nc(C(N)=O)c(Nc2ccc(N3CCC(N4CCN(C)CC4)CC3)c(OC)c2)nc1NC1CCOCC1 | human | plasma | oral | 40 mg | single dose, fasted, healthy volunteers | 1780 ng·h/mL
Nc1ccc(-c2nc([C@H]3CCc4cc(-c5cc(Cl)ccc5-n5cnnn5)cc(=O)n43)c(F)[nH]2)c(F)n1 | human | plasma | oral | 1 mg | single dose, fasted | 148 ng·h/mL
O=C(CCCCCCC(=O)Nc1ccccc1)NO | human | serum | oral | 400 mg | – | 4.81 µM·h
C=CC(=O)Nc1cc(Nc2ncc(C(=O)OC(C)C)c(-c3cn(C)c4ccccc34)n2)c(OC)cc1N(C)CCN(C)C | human | plasma | oral | 20 mg | single dose, fasted, healthy volunteers | 64 ng·h/mL
CCOc1ccc(Cc2cc([C@@H]3S[C@H](CO)[C@@H](O)[C@H](O)[C@H]3O)c(OC)cc2C)cc1 | human | plasma | oral | 15 mg | single dose, fasted, healthy volunteers | 5140 ng·h/mL

Excerpt of the above:
SMILES | host | sample | route | dose | setting | AUC(0-inf)
COc1cccc(-c2ccc(NC(=O)C3=C(C(=O)O)CCC3)c(F)c2)c1 | male human | plasma | oral | 20 mg | single dose, fasted, healthy volunteers | 79000 ng·h/mL
C[C@@H]1CCC[C@H](n2cnc(-c3cc(Cl)ccc3-n3cc(Cl)nn3)cc2=O)c2cc(ccn2)-c2c(cnn2C(F)F)NC1=O | human | plasma | oral | 200 mg | single dose, fed, healthy volunteers | 19100 ng·h/mL
